Results from different studies.
Every numbered part comes from another study and shows a few of its results, in no order.

Series 1 — technique: RNA Bind-n-Seq; form: RNA; matrix: in vitro; concentration: 365 nM; reference: no-protein control; reading: higher = stronger binding; quantity: RBNS enrichment (R)
Target: RNA binding protein fox-1 homolog 2, RRM domain, GST-SBP tag (RBFOX2, Homo sapiens, UniProt O43251-10, residues 100-194)
Notes: natural RNA segment, single round, ends assumed
Shared flanks, not repeated: GGGAGUUCUACAGUCCGACGAUC … UGGAAUUCUCGGGUGCCAA
Construct (chain): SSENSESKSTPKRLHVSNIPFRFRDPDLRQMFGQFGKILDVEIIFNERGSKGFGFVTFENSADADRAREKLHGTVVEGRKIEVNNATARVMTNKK
Strand = GGAGCCACGGCCCCAGUAAGUAAUUUUCCAAGUUGAUAGGCUCGUGAAAGCUGAACAUUACCGAUAAGGCACAGGUUCCUUUUGAACAUGUUUUUCUCACUUAGGUCUCA; value = 0.294
Strand = GCCCUUCAAUGCCCCCAAGUGGCCCAGAACUUGGGGAGCCAGUUCACCCACGGGUGGUCCAGGUCACGACUCUGCACGCCCUUAGGCCAGGUCAGCUGCGAGGGUCACAG; value = 0.475
Strand = ACUCUCCAGUGUUGUCCAAGGAAAUGUAGAAUCAGUUUGUAGAUAGAUAAAAUAAUCUUUAUUAUAAUGACCAGUUUUGUGCCACAUUGUUGGUGGCGAUCGACCAGAUG; value = 0.878
Strand = UUGUUGUUGUUGAUGUUGUUGUUGUUGUGUAAUGUAACAGCACUUUAAAAGGGCGACAACUGACUCACGAGAUGGCGACCAUCUUGAGCCUAUUUGGGGAGACCUGUAUC; value = 0.211
Strand = UUGCUCUAAGGAAGAUUAAAAAAAGAUAGGGAAAAGGGGGAAACUUCUUUGAAAAAUGAAACAUCUGUUACAUUAAUGUCUAAUUAUAAAAUUUUAAUCCUUACUGCAUU; value = 0.399
Strand = CAAGGGUAUCAGCUUUUCCUUAGAUUUGUUCCUUGCUUUAUUUUUUAAUCACUAGCCAAAUUAAAUAAAAGCAUUUAUGAGAACUCUAAACCUUUCUGUAUUUGAGAGAG; value = 0.908
Strand = UUGGUGGGAAUGGAACUGGGCCGAUGUCCUUCAUUCAGCCUGUGCCUUUCUUGGGGUUUCUUUUCUGUUUUUCUUUCCGGAAGAGAAGGGCCUGAGAAAGGGCCAUGCCA; value = 1.24
Strand = GGGCUUCUUUGCUUUUCAAAUGUCCUAGCUCUGUAGUUCGUGCUGUCAUUGGUUUGAUUGUCUCACUGUCCUUCAUUCAGGGCUCUGAGUUUCCUUUGGGCUGCCUUUCU; value = 0.296
Strand = CUGUCCCUCUACCAGUUACCUUAGUUGGGGAGCCAGUGCGUGUCACACCAGAUAAGCGGUUGUGUGUCCGCUUUUGUUAUAUAGGGCAGGAUAGAAUGCAUGUCGGGUAA; value = 17.7
Strand = UCUCAUGCUCUCCGCCCUGUUCUAUCUGGCACUUCCCAGGCACAGAGGCCCCUUCAGGUUCCUGGGUGCUCUUCAAUGGCCAAAACUCGAUUUCAUGUCUGGGAGCCUGG; value = 0.413
Strand = CCAGCUAAGCUAAAUUGCAAGCUAGAUGCCUCCUGCCCCUGCCCUCAGCUGCCCAGGCCCCAGCAUGGAGAUGGCCUGCACAGCAGGCUCAGCACCUCUGAGGUGUGCAU; value = 7.85
Strand = GGAUUACAGGCAUGAGCCACCGUGGCCGGCCAAGAUUUUAAGCCUUCUGAGCCUUGAAAUUGAGGAGGUUAAAAGGAAGAGCCUUAAGAUUUUGAUUUAUGUCAAAUCCU; value = 0.325

Series 2 — technique: competition protein-binding microarray; form: double-stranded DNA, one strand shown; matrix: in vitro; concentration: 2 µM; together with: Pho4 competitor, 0.05 µM; reading: higher = stronger binding; quantity: fluorescence intensity; shared flanks, not repeated: … GTCTTGATTCGCTTGACGCTGCTG
Target: Centromere-binding protein 1, full length, His-tagged (CBF1, Saccharomyces cerevisiae, UniProt P17106, residues 1-351)
Chain of UniProt P17106 (whole entry, looked up): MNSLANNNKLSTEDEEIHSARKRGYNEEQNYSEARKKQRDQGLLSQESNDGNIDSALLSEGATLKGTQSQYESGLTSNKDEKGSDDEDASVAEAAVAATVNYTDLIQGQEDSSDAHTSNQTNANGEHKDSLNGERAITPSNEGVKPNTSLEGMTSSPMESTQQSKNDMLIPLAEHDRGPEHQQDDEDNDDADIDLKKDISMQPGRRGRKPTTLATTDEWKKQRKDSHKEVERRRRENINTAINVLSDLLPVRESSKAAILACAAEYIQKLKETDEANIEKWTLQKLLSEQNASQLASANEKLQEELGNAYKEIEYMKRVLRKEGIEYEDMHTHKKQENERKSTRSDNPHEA
Notes: whole 60-bp probe, lowest competitor level
Strand = CCAAAACTGACAACCGGCGTGCGGATATGCGGAAGA; value = 58.1 a.u.
Strand = AAAAGAGGTTCGAGTCACGTGATGGAGATTACCCGC; value = 21900 a.u.
Strand = GAATCTCCGCATATACATGTGGTCGGCATCGTTGTC; value = 108 a.u.
Strand = AGCGCCCATAAAAAGCACGATATTCTTGTACACTAG; value = 75.5 a.u.
Strand = AAAGCGGTAATTTGTCACCAGACTTCACATATCTAT; value = 109 a.u.
Strand = TACTTTCTACGCGGCCACGTGCAATTAAAAGATGGC; value = 1860 a.u.
Strand = TGCGCAACAACTTGGCCAGTGGGTGTATGTCTAGAA; value = 56.4 a.u.
Strand = ATTGTTTCCAGGCGTCATGTGTTTCCTTGATGATAT; value = 274 a.u.
Strand = CCATTTCTTCTTCGTCACACGTTAAGCTTGCCAGGA; value = 104 a.u.
Strand = TTTTTCTTCTTAAAGCACGTTAACCAGTAATCAAGG; value = 90 a.u.
Strand = ATTCGAAATGATTCGGGCGTGCAAATGAAGCTCTTG; value = 80.2 a.u.
Strand = CGGGGTTAAGTTTGTACCGTGGGTGGCTTGCAGCAG; value = 66.2 a.u.
Strand = CTAACGAAGGTTTTTCACGTGTAGTACAAGCCAAGT; value = 648 a.u.
Strand = CTTCTGTAAATTTGTGAAGTGGGTGGACGCGCCCCG; value = 83.1 a.u.
Strand = AAATTACTAAGTTGCCCTGTGGGTGACGCCGTATGA; value = 59.6 a.u.
Strand = CATACCCAACCTTGTGTTGTGGGTGAAGATATTTGT; value = 88.9 a.u.
Strand = CAATTTGTGGTCTTCGTCGTGCTTTGTGGGTTTAGC; value = 75 a.u.
Strand = AAATTACTAAGTTTTCACGTGTCTTACCCCGTATGA; value = 1020 a.u.
Strand = GGAAAGCCTATTTCTCACGTTTTCCGGCACTTAATG; value = 149 a.u.
Strand = CGACTGCGCTGTAACCATGCGTGGACCAGCCAATTT; value = 63 a.u.
Strand = AAAATATATCGCTAGCATGCGTGAGATATGGATAAG; value = 89.8 a.u.
Strand = CACCGAATTTCCTGGCACGATCGTTGTTACCAGCTG; value = 88.4 a.u.

Series 3 — technique: protein binding microarray; form: double-stranded DNA, one strand shown; matrix: in vitro; concentration: not given; reference: not given; reading: higher = stronger binding; quantity: E-score
Target: Histone acetyltransferase KAT6A, winged helix 1, GST fusion (KAT6A, Homo sapiens, UniProt Q92794, residues 1-85)
Notes: 8-mer, flanks averaged, mean of 2 arrays, mostly near background
Target sequence (chain): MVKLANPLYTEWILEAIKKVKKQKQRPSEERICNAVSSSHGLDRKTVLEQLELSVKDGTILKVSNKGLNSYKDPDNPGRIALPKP
Strand = GAATACTA; value = -0.0943
Strand = ATTTTAAG; value = -0.129
Strand = ACCGTAGT; value = 0.158
Strand = ACAAGTTG; value = -0.0922
Strand = AAGATCTT; value = -0.119
Strand = AAGTGCGG; value = 0.0489
Strand = AGATGATA; value = -0.0986
Strand = CCAGAGTA; value = 0.00851
Strand = CCAATACC; value = 0.072
Strand = CGGCGCAC; value = 0.435
Strand = TACACACA; value = -0.127
Strand = CGAGCTAG; value = -0.0141
Strand = CCACAGGG; value = -0.0957
Strand = TTAGAAAA; value = -0.226
Strand = ACGTGGGG; value = -0.192
Strand = CACAGCTA; value = -0.243
Strand = CGGTCCGA; value = 0.286
Strand = ACGGCTAC; value = 0.381
Strand = ATTGGGAG; value = -0.287
Strand = AACAGGAG; value = -0.319
Strand = AGCGTGCC; value = 0.162

Series 4 — technique: protein-binding microarray; form: double-stranded DNA, one strand shown; matrix: in vitro; concentration: 940 nM top; notes: 60-bp whole probe; together with: salmon DNA 0.4 mg/ml; reference: random background probes; reading: higher = stronger binding; quantity: fitted relative affinity; shared flanks, not repeated: GCCTAGCAC … GTCTTGATTCGCTTGACGCTGCTG
Target: Interferon regulatory factor 5, full length, phosphomimetic (IRF5, Homo sapiens, UniProt Q13568-2, residues 1-514, S451D/S453D/S456D/S462D)
Strand = TTAAGTATCCTTATCCTTTAGTGCTAG; value = 0.494 z-score
Strand = TTAGGTCTCAGACTGGATTAGTGCTAG; value = -0.482 z-score
Strand = TGAGGACTGCTTCTCCTTTAGTGCTAG; value = -0.343 z-score
Strand = GACGGTCTTGGTCTCGGGACGTGCTAG; value = 0.709 z-score
Strand = TTAGGACTGGACACCGGGTTAGTGCTA; value = -0.581 z-score
Strand = TGAGAACTGGGGTTTCGATTAGTGCTA; value = 5.2 z-score
Strand = TTATTTAGGATAGAACTATAGTGCTAG; value = -0.41 z-score
Strand = TCAGCTCTAGGTTCTCTGAAGGTGCTA; value = -0.651 z-score
Strand = GACGGTTTCGACTTTCCGGACGTGCTA; value = 8.35 z-score
Strand = TTAGGACTGGGGATTGGGTTAGTGCTA; value = 0.0427 z-score
Strand = TTATATATCAGACTGGATTAGTGCTAG; value = -0.125 z-score
Strand = TCACTTCTTTTTTATTCTACTGTGCTA; value = 2.07 z-score
Strand = GACGATTTCAGACTGGATACGTGCTAG; value = -0.378 z-score
Strand = TTAGGTTTCGACAATCGGTTAGTGCTA; value = 7.83 z-score
Strand = TAACATATTCTCTTCTTGCAGTGCTAG; value = 1.3 z-score
Strand = TTGGGACTGCTACTGCTTTAGTGCTAG; value = -0.443 z-score
Strand = TTAGATTTCGGTTTCGGTTAGTGCTAG; value = 10.1 z-score
Strand = GACGGACTGGACCCTGGGGACGTGCTA; value = -0.598 z-score
Strand = TTAGGACTGGGTTTTGGTTAGTGCTAG; value = 0.82 z-score
Strand = GAGGAGGGGCTGTTACTCTCGTGCTAG; value = 0.462 z-score
Strand = GACGATTTCGGGACTGGAGACGTGCTA; value = 0.0425 z-score
Strand = TTGGGTTTCGGTCTCGGTTAGTGCTAG; value = 13.5 z-score
Strand = TTAGATATCAGTATCGATGAGTGCTAG; value = 3.48 z-score
Strand = TTAGGTTTCGGGTTTCGTTTAGTGCTA; value = 10.5 z-score
Strand = TTAGGTCTCGGTATCGGCTAGTGCTAG; value = 5.79 z-score

Series 5 — technique: aptamer microarray, sandwich; form: DNA with 2'F-ANA; matrix: in vitro; concentration: 200 nM; together with: Cy3 exosite-II aptamer, 400 nM; reading: higher = stronger binding; quantity: mean fluorescence intensity; strand: GGTTGGTGTGGTTGG
Target: Prothrombin, mature alpha-thrombin (F2, Homo sapiens, UniProt P00734)
Notes: whole 15-mer aptamer, many near background
Modification = 2'F-ANA at 1 3 5 7 8 9 12 13; value = 104 a.u.
Modification = 2'F-ANA at 4 6 8 10 11 13 14 15; value = 56.8 a.u.
Modification = 2'F-ANA at 6 7 8 11 12 15; value = 702 a.u.
Modification = 2'F-ANA at 1 2 4 5 7 11 13 15; value = 50.6 a.u.
Modification = 2'F-ANA at 1 7 9 13 14; value = 53.5 a.u.
Modification = 2'F-ANA at 3 4 5 6 7 8 11 12 13 15; value = 115 a.u.
Modification = 2'F-ANA at 2 3 4 6 10; value = 255 a.u.
Modification = 2'F-ANA at 1 2 3 4 7 8 10 13 14; value = 50.1 a.u.
Modification = 2'F-ANA at 4 5 6 7 8 9 10 11 12 13 14 15; value = 46.3 a.u.
Modification = 2'F-ANA at 2 3 4 6 11; value = 516 a.u.
Modification = 2'F-ANA at 1 7 8 13 14 15; value = 69.3 a.u.
Modification = 2'F-ANA at 1 4 5 7 9 10 11 14 15; value = 106 a.u.
Modification = 2'F-ANA at 6 8 11 14 15; value = 177 a.u.
Modification = 2'F-ANA at 2 3 4 8 9 11 15; value = 553 a.u.
Modification = 2'F-ANA at 1 2 6 7 8 9 10 11; value = 55.1 a.u.
Modification = 2'F-ANA at 2 6 7 8 9 10 12; value = 177 a.u.
Modification = 2'F-ANA at 1 8 10 11 14; value = 49.3 a.u.
Modification = 2'F-ANA at 1 2 3 5 6 7 10 11 12 14; value = 63.9 a.u.
Modification = 2'F-ANA at 2 3 6 7 14 15; value = 395 a.u.
Modification = 2'F-ANA at 1 2 3 4 5 6 7 8 9 11 14; value = 56.6 a.u.
Modification = 2'F-ANA at 2 3 4 8 9 10 12 15; value = 281 a.u.

Some of these lines once more (series 5):
Modification = 2'F-ANA at 3 4 5 6 7 8 11 12 13 15; value = 115 a.u.
Modification = 2'F-ANA at 4 6 8 10 11 13 14 15; value = 56.8 a.u.
Modification = 2'F-ANA at 2 6 7 8 9 10 12; value = 177 a.u.
Modification = 2'F-ANA at 1 2 6 7 8 9 10 11; value = 55.1 a.u.
Modification = 2'F-ANA at 1 4 5 7 9 10 11 14 15; value = 106 a.u.
Modification = 2'F-ANA at 1 8 10 11 14; value = 49.3 a.u.
Modification = 2'F-ANA at 1 3 5 7 8 9 12 13; value = 104 a.u.
Modification = 2'F-ANA at 4 5 6 7 8 9 10 11 12 13 14 15; value = 46.3 a.u.
